Experimental data of several laboratories.
Compare with care: the assays were run in different laboratories.
Organism: Enterococcus faecium

CN[C@H](CC(C)C)C(=O)N[C@H]1C(=O)N[C@@H](CC(N)=O)C(=O)N[C@H]2C(=O)N[C@H]3C(=O)N[C@H](C(=O)N[C@H](C(=O)O)c4cc(O)cc(O)c4-c4cc3ccc4O)[C@H](O)c3ccc(c(Cl)c3)Oc3cc2cc(c3O[C@@H]2O[C@H](CO)[C@@H](O)[C@H](O)[C@H]2O[C@H]2C[C@](C)(NCc3ccc(OCc4cn(CCCCC(=O)N[C@H](C(=O)N[C@@H](CCN)C(=O)N[C@H]5CCNC(=O)[C@H]([C@@H](C)O)NC(=O)[C@H](CCN)NC(=O)[C@H](CCN)NC(=O)[C@H](CC(C)C)NC(=O)[C@@H](CC(C)C)NC(=O)[C@H](CCN)NC5=O)[C@@H](C)O)nn4)c(OC)c3)[C@H](O)[C@H](C)O2)Oc2ccc(cc2Cl)[C@H]1O
MIC (VRE vanB): 3 µM

CC(C)C[C@H](NC(=O)[C@@H](NC(=O)[C@H](CCCNC(=N)N)NC(=O)[C@H](CCC(N)=O)NC(=O)[C@H](Cc1ccccc1)NC(=O)[C@H](Cc1ccc(O)cc1)NC(=O)[C@H](CC(N)=O)NC(=O)[C@H](Cc1c[nH]c2ccccc12)NC(=O)[C@@H](NC(=O)[C@H](CCCNC(=N)N)NC(=O)[C@H](CCCCN)NC(=O)[C@@H](N)Cc1ccccc1)C(C)C)C(C)C)C(=O)N[C@H](C(=O)N[C@@H](CCCCN)C(=O)N[C@@H](CCCCN)C(=O)N[C@@H](Cc1ccc(O)cc1)C(N)=O)C(C)C
MIC (broth dilution; KCTC 13225): 25 µM

C#CCNC(=O)[C@H]1NC(=O)[C@H]2NC(=O)[C@H](NC(=O)[C@@H]3NC(=O)[C@H](CC(N)=O)NC(=O)[C@H](NC(=O)[C@@H](CC(C)C)NC)[C@H](O)c4ccc(c(Cl)c4)Oc4cc3cc(c4O[C@@H]3O[C@H](CO)[C@@H](O)[C@H](O)[C@H]3O[C@H]3C[C@](C)(N)[C@H](O)[C@H](C)O3)Oc3ccc(cc3Cl)[C@H]2O)c2ccc(O)c(c2)-c2c(O)cc(O)cc21
MIC (VRE vanB): 86 µM

C=C1NC(=O)C2CSCC3NC(=O)C(CSC(C)C(NC(=S)C(Cc4cnc[nH]4)NC(=O)c4csc(C(C)NC(C)=O)n4)C(=O)N[C@H](CC(C)C(=O)NC(=O)CC(C(=O)O)NC(=O)C(C)NC3=O)C(=O)N2)NC(=O)[C@@H]2CCCN2C(=O)[C@@H](CC(C)C)NC1=O (stereo partly shown)
MIC (BM4147-1): > 32 mg/L

CC(C)CCCCCCCCC/C=C/C(=O)N[C@@H](CC(=O)O)C(=O)N[C@H]1CNC(=O)[C@@H]2CCCN2C(=O)[C@H](C(C)C)NC(=O)[C@@H](CN)NC(=O)CNC(=O)[C@H](CC(=O)O)NC(=O)CNC(=O)[C@H](CC(=O)O)NC(=O)[C@H](CC(=O)O)NC(=O)[C@H]2CCCCN2C1=O
MIC (broth microdilution; daptomycin-resistant isolate, Mueller-Hinton broth, Mg2+ 10 mg/L; 16 h, added: Ca2+ 1.0 mM): 8 mg/L

CN[C@H](CC(C)C)C(=O)N[C@H]1C(=O)N[C@@H](CC(N)=O)C(=O)N[C@H]2C(=O)N[C@H]3C(=O)N[C@H](C(=O)N[C@H](C(=O)NCc4cn(CCCCC(=O)N[C@H](C(=O)N[C@@H](CCN)C(=O)N[C@H]5CCNC(=O)[C@H]([C@@H](C)O)NC(=O)[C@H](CCN)NC(=O)[C@H](CCN)NC(=O)[C@H](CC(C)C)NC(=O)[C@@H](CC(C)C)NC(=O)[C@H](CCN)NC5=O)[C@@H](C)O)nn4)c4cc(O)cc(O)c4-c4cc3ccc4O)[C@H](O)c3ccc(c(Cl)c3)Oc3cc2cc(c3O[C@@H]2O[C@H](CO)[C@@H](O)[C@H](O)[C@H]2O[C@H]2C[C@](C)(N)[C@H](O)[C@H](C)O2)Oc2ccc(cc2Cl)[C@H]1O
MIC (VRE vanB): 3 µM

CC[C@H](C)[C@H](N)C(=O)N[C@@H](CCCNC(=N)N)C(=O)N[C@H](C(=O)N[C@@H](Cc1c[nH]c2ccccc12)C(=O)N[C@@H](Cc1ccccc1)C(=O)N[C@H](C(=O)N[C@@H](CCCCN)C(=O)N[C@H](C(=O)N[C@@H](CCCNC(=N)N)C(=O)N[C@@H](CCCCN)C(=O)N[C@@H](CCSC)C(=O)N[C@@H](CCCCN)C(=O)N[C@@H](C)C(=O)N[C@H](C(=O)N[C@@H](Cc1ccc(O)cc1)C(=O)N[C@@H](Cc1c[nH]cn1)C(N)=O)[C@@H](C)CC)C(C)C)[C@@H](C)CC)C(C)C
MIC (broth dilution; KCTC 13225): > 100 µM

CC[C@H](C)[C@H](N)C(=O)N[C@H](C)C(=O)N[C@@H](CC(C)C)C(=O)N[C@H](CCC(=O)O)C(=O)N[C@H](C(=O)N[C@H]1CCCCNC(=O)[C@H](CC(N)=O)NC(=O)[C@@H](CC(=O)O)NC(=O)[C@H](Cc2c[nH]cn2)NC(=O)[C@@H](Cc2ccccc2)NC(=O)[C@H]([C@@H](C)CC)NC(=O)[C@@H](CCCN)NC1=O)[C@@H](C)CC
MIC (VanB vancomycin-resistant; 18 h, 37 °C, 0.3 mM ZnSO4 LB): > 64 mg/L

CC[C@H](C)[C@@H]1NC(=O)[C@@H]([C@@H](C)O)NC(=O)CNC(=O)[C@H](CC(=O)O)NC(=O)CNC(=O)[C@H](CC(=O)O)NC(=O)CNC(=O)[C@H]2CCCCN2C(=O)[C@@H](NC(=O)[C@H](CC(=O)O)NC(=O)/C=C/CCCCCCCCCC(C)C)CNC(=O)[C@@H]2CCCN2C1=O
MIC (broth microdilution; daptomycin-resistant isolate, Mueller-Hinton broth, Mg2+ 10 mg/L; 16 h, added: Ca2+ 10 mM): 8 mg/L

CCCCCCC#Cc1cncc(-c2nnc(SCc3cc([N+](=O)[O-])cc([N+](=O)[O-])c3)n2C)c1
MIC (broth microdilution; ATCC 51559 MDR VRE; 18 to 24 h, 37 °C): > 64 mg/L

CN[C@H](CC(C)C)C(=O)N[C@H]1C(=O)N[C@@H](CC(N)=O)C(=O)N[C@H]2C(=O)N[C@H]3C(=O)N[C@H](C(=O)N[C@H](C(=O)N[C@@H](CCCNC(=N)N)C(N)=O)c4cc(O)cc(O)c4-c4cc3ccc4O)[C@H](O)c3ccc(c(Cl)c3)Oc3cc2cc(c3O[C@@H]2O[C@H](CO)[C@@H](O)[C@H](O)[C@H]2O[C@H]2C[C@](C)(NCc3ccc(OCc4cn(CC(=O)N[C@H](C(=O)N[C@@H](CCN)C(=O)N[C@H]5CCNC(=O)[C@H]([C@@H](C)O)NC(=O)[C@H](CCN)NC(=O)[C@H](CCN)NC(=O)[C@H](CC(C)C)NC(=O)[C@@H](CC(C)C)NC(=O)[C@H](CCN)NC5=O)[C@@H](C)O)nn4)c(OC)c3)[C@H](O)[C@H](C)O2)Oc2ccc(cc2Cl)[C@H]1O
MIC (broth microdilution; vancomycin-resistant vanB, tryptic soy broth; 20 to 24 h, 37 °C, 0.002% polysorbate 80): 0.031 mg/L

CC[C@H](C)[C@H](NC(=O)[C@H](C)NC(=O)[C@@H](NC(=O)[C@H](CC(=O)O)NC(=O)[C@H](CCCCN)NC(=O)[C@H](CO)NC(=O)[C@@H](NC(=O)[C@H](CC(N)=O)NC(=O)[C@H](C)NC(=O)[C@@H](NC(=O)[C@H](CCC(=O)O)NC(=O)[C@H](CCCCN)NC(=O)[C@@H](NC(=O)[C@@H](NC(=O)[C@H](Cc1c[nH]cn1)NC(=O)[C@H](CCCCN)NC(=O)[C@@H](NC(=O)[C@H](CCCCN)NC(=O)[C@H](CCCCN)NC(=O)[C@@H](NC(=O)[C@H](CC(C)C)NC(=O)[C@H](CCCCN)NC(=O)[C@H](CC(N)=O)NC(=O)[C@H](Cc1ccccc1)NC(=O)[C@H](CCCNC(=N)N)NC(=O)[C@H](CCCCN)NC(=O)[C@H](CCCNC(=N)N)NC(=O)[C@H](Cc1ccccc1)NC(=O)CN)C(C)C)C(C)C)[C@@H](C)O)[C@@H](C)CC)[C@@H](C)O)C(C)C)C(C)C)C(=O)N[C@H](C(=O)N[C@@H](C)C(=O)NCC(=O)N[C@@H](CO)C(=O)NCC(=O)N[C@H](C(=O)N[C@@H](C)C(=O)N[C@H](C(=O)NCC(=O)N[C@@H](C)C(=O)N[C@@H](C)C(=O)N[C@@H](CCSC)C(N)=O)C(C)C)C(C)C)C(C)C
MIC (DSM 17050, CAMHB): > 1020 mg/L

CC[C@H](C)[C@H](N)C(=O)NCC(=O)N[C@@H](CC(C)C)C(=O)N[C@H](CCC(=O)O)C(=O)N[C@H](C(=O)N[C@H]1CCCCNC(=O)[C@H](CC(N)=O)NC(=O)[C@@H](CC(=O)O)NC(=O)[C@H](Cc2c[nH]cn2)NC(=O)[C@@H](Cc2ccccc2)NC(=O)[C@H]([C@@H](C)CC)NC(=O)[C@@H](CCCN)NC1=O)[C@@H](C)CC
MIC (VanB vancomycin-resistant; 18 h, 37 °C, 0.3 mM ZnSO4 LB): > 64 mg/L

CC[C@H](C)[C@H](N)C(=O)N[C@@H](CCCNC(=N)N)C(=O)N[C@H](C(=O)N[C@@H](Cc1c[nH]c2ccccc12)C(=O)N[C@@H](Cc1ccccc1)C(=O)N[C@H](C(=O)N[C@@H](CCCCN)C(=O)N[C@H](C(=O)N[C@@H](CCCNC(=N)N)C(=O)N[C@@H](CCCCN)C(=O)N[C@@H](CCSC)C(=O)N[C@@H](CCCCN)C(=O)N[C@@H](C)C(=O)N[C@H](C(=O)N[C@@H](Cc1ccc(O)cc1)C(=O)N[C@@H](Cc1c[nH]cn1)C(=O)N[C@H](C(N)=O)[C@@H](C)O)[C@@H](C)CC)C(C)C)[C@@H](C)CC)C(C)C
MIC (broth dilution; KCTC 13225): 25 µM

Oc1c(Br)cc(Br)c2nc3ccc(C(F)(F)F)cc3nc12
MIC (broth microdilution; vancomycin-resistant 700221, brain-heart infusion broth): 0.78 µM

CN[C@H](CC(C)C)C(=O)N[C@H]1C(=O)N[C@@H](CC(N)=O)C(=O)N[C@H]2C(=O)N[C@H]3C(=O)N[C@H](C(=O)N[C@H](C(=O)NCC(N)=O)c4cc(O)cc(O)c4-c4cc3ccc4O)[C@H](O)c3ccc(c(Cl)c3)Oc3cc2cc(c3O[C@@H]2O[C@H](CO)[C@@H](O)[C@H](O)[C@H]2O[C@H]2C[C@](C)(NCc3ccc(OCc4cn(CC(=O)N[C@H](C(=O)N[C@@H](CCN)C(=O)N[C@H]5CCNC(=O)[C@H]([C@@H](C)O)NC(=O)[C@H](CCN)NC(=O)[C@H](CCN)NC(=O)[C@H](CC(C)C)NC(=O)[C@@H](CC(C)C)NC(=O)[C@H](CCN)NC5=O)[C@@H](C)O)nn4)c(OC)c3)[C@H](O)[C@H](C)O2)Oc2ccc(cc2Cl)[C@H]1O
MIC (broth microdilution; vancomycin-resistant vanB, tryptic soy broth; 20 to 24 h, 37 °C, 0.002% polysorbate 80): 0.5 mg/L

CC(C)CCCCCCCCC/C=C/C(=O)N[C@@H](CC(N)=O)C(=O)N[C@H]1CNC(=O)[C@@H]2CCCN2C(=O)[C@H](C(C)C)NC(=O)[C@@H](CN)NC(=O)CNC(=O)[C@H](CC(=O)O)NC(=O)CNC(=O)[C@H](CC(=O)O)NC(=O)[C@H](CC(=O)O)NC(=O)[C@H]2CCCCN2C1=O
MIC (broth microdilution; daptomycin-resistant isolate, Mueller-Hinton broth, Mg2+ 10 mg/L; 16 h, added: Ca2+ 1.0 mM): 8 mg/L

C#CCOc1ccc(CN[C@@]2(C)C[C@H](O[C@H]3[C@H](Oc4c5cc6cc4Oc4ccc(cc4Cl)[C@@H](O)[C@@H](NC(=O)[C@@H](CC(C)C)NC)C(=O)N[C@@H](CC(N)=O)C(=O)N[C@H]6C(=O)N[C@H]4C(=O)N[C@H](C(=O)N[C@H](C(=O)O)c6cc(O)cc(O)c6-c6cc4ccc6O)[C@H](O)c4ccc(c(Cl)c4)O5)O[C@H](CO)[C@@H](O)[C@@H]3O)O[C@@H](C)[C@H]2O)cc1OC
MIC (broth microdilution; vancomycin-resistant vanB, tryptic soy broth; 20 to 24 h, 37 °C, 0.002% polysorbate 80): 64 mg/L

c1ccc(CCNC2CCCc3c2[nH]c2ccc(C4CCCCC4)cc32)cc1 (stereo not shown)
MIC (broth microdilution; BM4147 vancomycin-resistant): 2 mg/L
